Results pooled from the literature.
Lines come from different studies, so protocols differ. “And” joins repeats or separate records; there may be more than shown. ± gives the spread as reported.

SMILES | tested on | test | test system | conditions | scale | endpoint | value
CCN(CC)CCCC(C)Nc1ccnc2cc(Cl)ccc12 (stereo not drawn) | hiPSC-derived ventricular cardiomyocytes | action potential, current clamp, externally paced | – | 5 µM | – | maximal upstroke velocity | 19.8 mV/ms and 23.1 mV/ms and 13.2 mV/ms and 23.4 mV/ms
COc1cnc2cccc(N3CCc4c(cc(Cn5ccnc5C)cc4-c4cn(C)nc4C(F)(F)F)C3=O)c2c1 | SCC-15 | cell growth, inhibitor | – | 120 h | – | EC50 | 0.745 µM
CCCCc1nc(Cl)c(CO)n1Cc1ccc(-c2ccccc2-c2nn[nH]n2)cc1 | human PBMC | RNA-seq, refers to: ITGB8 mRNA | – | 10 µg/mL, 24 h | relative to: untreated control | log2 fold change | 2.48
Oc1ccc(/C=C/c2cc(O)cc(O)c2)cc1 | OCI-Ly1 | – | – | 1 µM, 120 h | – | viability | 150%
CC/C(=N\NC(=O)NCc1cccc(O)c1)c1ccc(O)c(C)c1O | SK-OV-3 | gene expression, microarray, refers to: CYR61 | – | 10 µM, 24 h | relative to: DMSO | log ratio | 4.85
[Cl-].[Cl-].[Ru+2].c1cnc2c(c1)ccc1cccnc12.c1cnc2c(c1)ccc1cccnc12.c1csc(-c2ccc(-c3ccc(-c4ccc(-c5nc6c7cccnc7c7ncccc7c6[nH]5)s4)s3)s2)c1 | SK-MEL-28 | – | – | normoxia, added: 523 nm light, 100 J/cm2 | – | phototherapeutic index | ~10
CCn1cc(-c2cc(Cn3ccnc3)cc3c2CCN([C@H](c2cc(OC)ccn2)C2CC2)C3=O)c(C(F)(F)F)n1 | SNU878 | cell growth, inhibitor | – | 120 h | – | EC50 | 21.2 µM
CC(C)N(C[C@H]1O[C@@H](n2cnc3c(N)ncnc32)[C@H](O)[C@@H]1O)[C@H]1C[C@@H](CCc2nc3cc(C(C)(C)C)ccc3[nH]2)C1 | OCI-Ly1 | – | – | 0.1 µM, 120 h | – | viability | 187%
CCCCN1C[C@H](O)[C@@H](O)[C@@H](O)[C@H]1CO | sample BB patient fibroblasts | Gb3 level lowering, LC-MS/MS, refers to: Gb3 d18:1/22:0 | – | 216 h | – | IC50 | 15.1 µM
Cc1[nH]c2ccccc2c1CCNCc1ccc(/C=C/C(=O)NO)cc1 | OCI-Ly1 | – | – | 1 µM, 120 h | – | viability | 0.374%
CC(C)NCC(O)c1ccc(O)c(O)c1 (stereo not drawn) | mouse ventricular cardiomyocytes | – | – | dose not given, 0.136 s | – | sarcomere length | 1.6 µm
Cn1cc(-c2ccc(-c3cncc(Cl)c3N3CCC4(CCNC4=O)CC3)cc2)cn1 | COLO 205 | microarray, refers to: CD55 | – | concentration not given, 2 h, gene set DAF | relative to: untreated cells | fold change in expression | 2.23
CCCCCCCC(=O)c1c(O)cc(O)cc1CC(=O)OCC | COS-7 | WST-8 | – | 10 µM, 24 h, 0.1% DMSO, unit not given | relative to: vehicle control | metabolic activity | 1.13 ± 0.03
C[C@H](CCC(=O)NCCS(=O)(=O)O)[C@H]1CC[C@H]2[C@@H]3CC[C@@H]4C[C@H](O)CC[C@]4(C)[C@H]3CC[C@]12C | rat PCK cystic cholangiocytes | cell counting | – | 20 µM, 48 h | relative to: untreated | proliferation increase | 62%
O=C(O)CNC(=O)C(=O)O | OCI-Ly1 | – | – | 1 µM, 120 h | – | viability | 147%
CC(C)C[C@H](NC(=O)C[C@H](O)[C@H](CC(C)C)NC(=O)[C@H](Cc1c[nH]cn1)NC(=O)CNC(=O)[C@@H](NC(=O)[C@H](C)NC(=O)[C@H](Cc1c[nH]c2ccccc12)NC(=O)[C@H](CCC(N)=O)NC(=O)[C@@H](Cc1ccccc1)NC(=O)COCCOCCNC(=O)CCC(C(=O)O)N1CCN(CC(=O)O)CCN(CC(=O)O)CCN(CC(=O)O)CC1)C(C)C)C(N)=O (stereo partly drawn) [lutetium-177 labelled] | – | – | female BALB/c nu/nu mice, pancreas | intravenous, 50 pmol, 1 h | – | tissue uptake | 4 ± 2 %ID/g
O=c1ncccn1[C@@H]1O[C@H](CO)[C@@H](O)[C@H]1O | OCI-Ly1 | – | – | 0.1 µM, 120 h | – | viability | 192%
C=CCNC1=C2C[C@@H](C)C[C@H](OC)[C@H](O)[C@@H](C)/C=C(\C)[C@H](OC(N)=O)[C@@H](OC)/C=C\C=C(/C)C(=O)NC(=CC1=O)C2=O | iPSC-derived cardiomyocytes | initial hit retest | – | concentration not given, 24 h, plate-normalised | – | MyBP-C protein level | 30%
CCCN1CCN(c2ccc3[nH]c(-c4ccc5[nH]c(-c6ccc(OCC)c(OCC)c6)nc5c4)nc3c2)CC1 | 786-0 | cell growth, NCI-60 SRB | – | 10 µM, 48 h | – | growth percent | -89%
O=C(/C=C/C=C/C=C/C1CCCCC1)NC1=C[C@@](O)(/C=C/C=C/C=C/C(=O)NC2=C(O)CCC2=O)[C@@H]2O[C@@H]2C1=O | WM793 | cell growth, CellTiter-Glo | – | 78 h | – | GI50 | 20.8 µM
COc1cc2c(c(OC)c1OC)C(=O)c1c(cc(C)c(O)c1OC)C2=O | HepaRG co-cultured with HK-2 | MTT | – | 266.67 µM, 24 h | relative to: untreated control | cell viability | 38.9 ± 7.66%
Cc1cc(/N=N/c2ccc(S(=O)(=O)Nc3ccccn3)cc2)c(N)cc1O | OCI-Ly1 | – | – | 0.5 µM, 120 h | – | viability | 155%
Cc1cc(O)c2c(c1)C(=O)c1cc(O)cc(O)c1C2=O | HepaRG co-cultured with HK-2 | MTT | – | 133.33 µM, 24 h | relative to: untreated control | cell viability | 51.7 ± 9.77%
COc1cccc2c(Nc3ccc4[nH]c(C(=O)N/N=C/c5ccc(SC)cc5)cc4c3)cc(C)nc12 | COS-7 | – | – | 10 µM, 24 h, 0.1% DMSO, unit not given | relative to: vehicle control | confluence | 0.96 ± 0.05
COc1cc2ncnc(Nc3ccc(Oc4ccccc4)cc3C)c2cc1OC | COLO 205 (BRAF V600E) | resazurin | – | 3 µM, 72 h, added: trametinib 0 nM | – | viability | 60.3%
O=C(O)c1ccnc(C(=O)O)c1 | OCI-Ly1 | – | – | 0.5 µM, 120 h | – | viability | 144%
c1ccc2[nH]ccc2c1 | HCT-8 | RNA-seq, refers to: AKAP3 | – | concentration not given | – | mRNA level, LS mean | 5.62 counts per million

Some of these lines once more:
SMILES | tested on | test | test system | conditions | scale | endpoint | value
COc1cc2c(c(OC)c1OC)C(=O)c1c(cc(C)c(O)c1OC)C2=O | HepaRG co-cultured with HK-2 | MTT | – | 266.67 µM, 24 h | relative to: untreated control | cell viability | 38.9 ± 7.66%
Cc1cc(/N=N/c2ccc(S(=O)(=O)Nc3ccccn3)cc2)c(N)cc1O | OCI-Ly1 | – | – | 0.5 µM, 120 h | – | viability | 155%
Cc1cc(O)c2c(c1)C(=O)c1cc(O)cc(O)c1C2=O | HepaRG co-cultured with HK-2 | MTT | – | 133.33 µM, 24 h | relative to: untreated control | cell viability | 51.7 ± 9.77%
